# Experimental data of several laboratories.
# Every numbered part comes from another study and shows a few of its results, in no order. Substitutions count along the parent as printed.

# Sample 1
# Target: RNA binding protein fox-1 homolog 2, RRM domain, GST-SBP tag (RBFOX2, Homo sapiens, UniProt O43251-10, residues 100-194)
# Technique: RNA Bind-n-Seq
# Molecule type: RNA
# Medium: in vitro
# Concentration: 365 nM
# Notes: natural RNA segment, single round, ends assumed
# Relative to: no-protein control
# Direction: higher = stronger binding
# Shared flanks, not repeated: GGGAGUUCUACAGUCCGACGAUC … UGGAAUUCUCGGGUGCCAA
# Target sequence (chain): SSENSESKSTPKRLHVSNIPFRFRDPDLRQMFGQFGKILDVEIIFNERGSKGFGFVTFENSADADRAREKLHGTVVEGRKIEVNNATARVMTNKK
Oligonucleotide,RBNS enrichment (R)
AGUCCUUCACCCCCAAGCACCACUGUACAGACUGGGGACCAGCCCCUUCCCUGCCUGUGUCUCUUCCCAAACCCCUGUAGGGGUGGUGAGAAGAGGAGGGGGGGAGGGGA,0.316
UGGUUACUUAUUAUCUAUUGUUUUAUACUUUCUAUGUUCAUUUCAAAUAAUGUUAAUGUUAUUCAAUCAUUUUCUGAAUUGUUAACUCUUAUUCUUUGGUUUAAAUACUG,0.423
AGAAUUUGGGGCUCUGACUGAUCAAAACCUGUGUAUCUGUGUCAAGUUUUAAGACCCCUGAAACAGCUAAAACAGGUUUCCAAAGUGUAAUCACUGGAUUUCAAAACCAU,0.242
UUGUACACUAAGAUUUCAUGCAGACACCAUUGCUGUGGAGCCGAUUGAAAUUUAACCCUGCUCCAUAUUCUAACCUGUUAUGCAGGUACACUGUUAUCUUGCCCUGUGUC,0.408
GAAGAGGUAUGUGAGACCCAGUUCAACGACAGCAUGAUUUUUUAAAUGGCUGUAAGUUAUGAUAAGGAAAUGUACUGAUUGCCAGUGCACUCCACCCUCAUUACGUCACC,0.594
CAGUCUUAUAAACAAAGUAAAUAGGACAGAGACUAAGUUUUAGGGAGACAUCUUGGCCUCCUAGGCUAAGUUUACUAAACCACACUGAAGCUAUAGUACCUUCCAGAUGG,0.252

# Sample 2
# Target: CRIPT, C-terminal peptide
# Technique: DHFR complementation, deep sequencing
# Medium: yeast
# Notes: single substitutions, model-inferred values
# Relative to: wild type
# Direction: higher = weaker binding
# Parent: ERBIN, PDZ domain 1 (human); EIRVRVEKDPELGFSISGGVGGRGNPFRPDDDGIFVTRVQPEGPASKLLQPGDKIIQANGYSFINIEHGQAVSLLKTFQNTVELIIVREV; partner TKNYKQTSV
Substitution,binding free energy change [kcal/mol]
F14W,1.22
I66N,0.707
S62K,0.0762
G60F,0.234
E42M,0.145
P44H,0.514

# Sample 3
# Target: CCNA1, cyclin fold, Cln2 fusion (human)
# Technique: yeast growth competition, sequencing
# Medium: yeast
# Notes: weak parent motif
# Relative to: not given
# Direction: higher = stronger binding
# Parent: CDKN1A docking peptide (human); SKACRRLFGPVDS; partner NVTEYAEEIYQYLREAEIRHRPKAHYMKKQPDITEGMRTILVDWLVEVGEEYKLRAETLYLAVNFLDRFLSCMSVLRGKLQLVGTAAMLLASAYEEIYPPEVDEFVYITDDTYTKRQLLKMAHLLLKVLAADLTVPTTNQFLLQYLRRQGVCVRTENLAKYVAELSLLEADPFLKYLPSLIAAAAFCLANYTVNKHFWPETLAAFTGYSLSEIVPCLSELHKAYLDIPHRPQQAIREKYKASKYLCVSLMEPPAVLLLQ
Substitution,normalised enrichment score
SKACRRLFGPVQS [D12Q],0.37
SKAVRRLFGPVDS [C4V],0.238
SKACRRFFGPVDS [L7F],0.00666
SKAFRRLFGPVDS [C4F],-0.502
SKSCRRLFGPVDS [A3S],-0.174
SKACRHLFGPVDS [R6H],0.208
SKACRRLFYPVDS [G9Y],1.38
SKACRRLIGPVDS [F8I],0.273
SKACPRLFGPVDS [R5P],-0.163

# Mixed results
Molecule,target,assay,test system,setting,how to read,quantity,result
"PhoQ, residues 284 288 289 292 302 303 NLCILV","PhoP, residues 12 14 15 18 19 AGCRL (Escherichia coli, UniProt P23836)","Sort-seq, measured: YFP reporter",E. coli,"PhoQ-PhoP variant library, together with: 10 µM Mg2+","relative to: high Mg2+ state, higher = stronger signaling",fold induction,4.14

# Excerpt of the above (sample 3):
Substitution,normalised enrichment score
SKAVRRLFGPVDS [C4V],0.238
SKACRRLFYPVDS [G9Y],1.38
